{"data": "Published values gathered from unrelated publications", "note": "A part holds a random share of what one study measured. Substitutions count along the parent as printed."}
{"data": "Study 1", "target": "CCNA2, cyclin fold, Cln2 fusion (human)", "method": "yeast growth competition, sequencing", "medium": "yeast", "notes": "weak parent motif", "relative to": "not given", "direction": "higher = stronger binding", "starting sequence": "MASTL docking peptide (human); PMIAKNLMCELDE"}
{"Change": "PMIAKNLMCWLDE [E10W]", "normalised enrichment score": 0.6}
{"Change": "PMIAKNLNCELDE [M8N]", "normalised enrichment score": -0.303}
{"Change": "PMIAKNLMCQLDE [E10Q]", "normalised enrichment score": 0.234}
{"Change": "PMCAKNLMCELDE [I3C]", "normalised enrichment score": 1.33}
{"Change": "PWIAKNLMCELDE [M2W]", "normalised enrichment score": -0.294}
{"Change": "PMIAKNLMGELDE [C9G]", "normalised enrichment score": 0.0282}
{"Change": "PLIAKNLMCELDE [M2L]", "normalised enrichment score": 0.0666}
{"Change": "PMIAHNLMCELDE [K5H]", "normalised enrichment score": -0.468}
{"Change": "PMIAKNLMCFLDE [E10F]", "normalised enrichment score": 0.131}
{"Change": "PHIAKNLMCELDE [M2H]", "normalised enrichment score": -0.153}
{"data": "Study 2", "target": "Histone acetyltransferase KAT6A, winged helix 1, GST fusion (KAT6A, Homo sapiens, UniProt Q92794, residues 1-85)", "method": "protein binding microarray", "form": "double-stranded DNA, one strand shown", "medium": "in vitro", "concentration": "not given", "notes": "8-mer, flanks averaged, mean of 2 arrays, mostly near background", "relative to": "not given", "direction": "higher = stronger binding", "Target sequence (chain)": "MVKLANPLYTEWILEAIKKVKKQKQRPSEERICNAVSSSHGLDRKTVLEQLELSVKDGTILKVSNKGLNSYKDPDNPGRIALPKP"}
{"Oligonucleotide": "ACTAATAG", "E-score": -0.14}
{"Oligonucleotide": "ACCACTGC", "E-score": -0.0627}
{"Oligonucleotide": "CCACTGCC", "E-score": -0.102}
{"Oligonucleotide": "ATTAGAGG", "E-score": -0.197}
{"Oligonucleotide": "AGGGAGAC", "E-score": -0.0757}
{"Oligonucleotide": "CGCATACC", "E-score": 0.258}
{"Oligonucleotide": "AAGATATG", "E-score": -0.18}
{"Oligonucleotide": "ACTCCCCA", "E-score": -0.308}
{"Oligonucleotide": "TGCAAACA", "E-score": -0.115}
{"Oligonucleotide": "GATCGTCC", "E-score": -0.117}
{"Oligonucleotide": "CCAGACGA", "E-score": -0.172}
{"data": "Study 3", "target": "ABI1, truncated, D143A, DHFR fusion (Arabidopsis thaliana)", "method": "DHFR PCA, deep sequencing", "medium": "yeast", "notes": "methotrexate growth selection, single substitutions", "added": "(+)-ABA 1.4 µM", "relative to": "wild-type fitted maximum", "direction": "higher = stronger binding", "starting sequence": "PYL1, truncated, DHFR fusion (Arabidopsis thaliana); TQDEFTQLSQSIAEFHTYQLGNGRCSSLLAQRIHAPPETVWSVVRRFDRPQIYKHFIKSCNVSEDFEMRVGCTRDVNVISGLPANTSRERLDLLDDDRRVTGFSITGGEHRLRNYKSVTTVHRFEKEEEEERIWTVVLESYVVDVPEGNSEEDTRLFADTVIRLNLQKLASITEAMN"}
{"Change": "I33M", "relative binding score [%]": 20.8}
{"Change": "S140T", "relative binding score [%]": 3.75}
{"Change": "C72P", "relative binding score [%]": 6.84}
{"Change": "K58V", "relative binding score [%]": -3.59}
{"Change": "R123Q", "relative binding score [%]": 68.2}
{"Change": "G23L", "relative binding score [%]": 9.57}
{"Change": "K54S", "relative binding score [%]": -1.42}
{"Change": "R99T", "relative binding score [%]": 7.97}
{"data": "Further values, each from its own experiment"}
{"Molecule": "PhoQ, residues 284 288 289 292 302 303 GASLAW", "target": "PhoP, residues 12 14 15 18 19 NQGLL (Escherichia coli, UniProt P23836)", "test": "Sort-seq, measured: YFP reporter", "test system": "E. coli", "conditions": "PhoQ-PhoP variant library, added: 10 µM Mg2+", "scale": "relative to: high Mg2+ state, higher = stronger signaling", "endpoint": "fold induction", "result": 2.26}
{"note": "A few entries again (study 2):"}
{"Oligonucleotide": "ACTAATAG", "E-score": -0.14}
{"Oligonucleotide": "CGCATACC", "E-score": 0.258}
{"Oligonucleotide": "ACCACTGC", "E-score": -0.0627}
{"Oligonucleotide": "ACTCCCCA", "E-score": -0.308}
